Experimental data from different studies.
Several values in a cell are separate wells, animals, samples, runs or records.

CC1(C)C(/C=C/C2=C(Cl)C(=C/C=C3/N(CCCCCC(=O)O)c4ccccc4C3(C)C)/C[N+](C)(C)C2)=[N+](CCCCCC(=O)O)c2ccccc21  Stokes shift (10 mM PBS; pH 7.4): 23 nm
CC1(C)C(=CC=C(C=CC2=[N+](CCC[N+](C)(C)C)c3ccc(S(=O)(=O)[O-])cc3C2(C)C)CCC(=O)[O-])N(CCC[N+](C)(C)C)c2ccc(S(=O)(=O)[O-])cc21  Stokes shift (100% serum; pH 7.4): 18 nm
COc1cc(OC)cc(C2=C3C(C)=C(I)C(/C=C/c4cccs4)=[N+]3[B-](F)(F)n3c(/C=C/c4cccs4)c(I)c(C)c32)c1  Stokes shift (dichloromethane): 263 cm⁻¹
Nc1nc(-n2nnc3c2CCC2C(CO)C2CC3)nc2c1ncn2C1OC(CO)C(O)C1O (mixture of isomers)  Stokes shift (methanol): 66 nm
COC(=O)c1ccccc1-c1c2ccc(=N)cc-2oc2c1ccc1cccc(OC)c12  Stokes shift (phosphate buffer 10% DMSO; pH 7.4): 58 nm
CCn1cc(/C=C/c2sc3ccccc3[n+]2CC)c2ccccc21  Stokes shift (DMSO): 69 nm
COc1cc(OC)cc(C2=C3C(C)=C(I)C(C)=[N+]3[B-](F)(F)n3c(/C=C/c4c[nH]c5ccc([N+](=O)[O-])cc45)c(I)c(C)c32)c1  Stokes shift (THF): 592 cm⁻¹
NCCC(=O)N1Cc2ccccc2-c2c(nnn2-c2cn(C3OC(CO)C(O)C3O)c(=O)[nH]c2=O)-c2ccccc21 (mixture of isomers)  Stokes shift (methanol): 49 nm
CC1(C)C(=CC=C(C=CC2=[N+](CCC[N+](C)(C)C)c3ccc(S(=O)(=O)[O-])cc3C2(C)C)Oc2ccc(CCC(=O)[O-])cc2)N(CCC[N+](C)(C)C)c2ccc(S(=O)(=O)[O-])cc21  Stokes shift (100% serum; pH 7.4): 19 nm
NCCC(=O)N1Cc2ccccc2-c2c(nnn2-c2nc3c(N)ncnc3n2C2OC(CO)C(O)C2O)-c2ccccc21 (mixture of isomers)  Stokes shift (methanol): 80 nm
CCOC(=O)c1[nH]c(C)c(/C=C/c2c(I)c(C)c3n2[B-](F)(F)[N+]2=C(C)C(I)=C(C)C2=C3c2cc(OC)cc(OC)c2)c1C  Stokes shift (dichloromethane): 578 cm⁻¹
CCn1cc(/C=C/c2ccc3ccccc3[n+]2CC)c2ccccc21  Stokes shift (PBS): > 70 nm and 87 nm
COc1cc(OC)cc(C2=C3C(C)=C(I)C(/C=C/c4c[nH]c5ccc([N+](=O)[O-])cc45)=[N+]3[B-](F)(F)n3c(/C=C/c4c[nH]c5ccc([N+](=O)[O-])cc45)c(I)c(C)c32)c1  Stokes shift (DMSO): 676 cm⁻¹
COC(=O)c1ccccc1-c1c2ccc(=O)cc-2oc2c1ccc1cccc(O)c12  Stokes shift (aqueous HCl 10% DMSO; pH 1.9): 70 nm

For quick reference, copied from above:
NCCC(=O)N1Cc2ccccc2-c2c(nnn2-c2nc3c(N)ncnc3n2C2OC(CO)C(O)C2O)-c2ccccc21 (mixture of isomers)  Stokes shift (methanol): 80 nm
